Published values of several laboratories.
Lines come from different studies, so protocols differ. “And” joins repeats or separate records; there may be more than shown. ± marks the error that the study gave.
MAL12: Alpha-glucosidase MAL12 (MAL12, Saccharomyces cerevisiae S288c, UniProt P53341)
Sequence of UniProt P53341 (whole entry, looked up): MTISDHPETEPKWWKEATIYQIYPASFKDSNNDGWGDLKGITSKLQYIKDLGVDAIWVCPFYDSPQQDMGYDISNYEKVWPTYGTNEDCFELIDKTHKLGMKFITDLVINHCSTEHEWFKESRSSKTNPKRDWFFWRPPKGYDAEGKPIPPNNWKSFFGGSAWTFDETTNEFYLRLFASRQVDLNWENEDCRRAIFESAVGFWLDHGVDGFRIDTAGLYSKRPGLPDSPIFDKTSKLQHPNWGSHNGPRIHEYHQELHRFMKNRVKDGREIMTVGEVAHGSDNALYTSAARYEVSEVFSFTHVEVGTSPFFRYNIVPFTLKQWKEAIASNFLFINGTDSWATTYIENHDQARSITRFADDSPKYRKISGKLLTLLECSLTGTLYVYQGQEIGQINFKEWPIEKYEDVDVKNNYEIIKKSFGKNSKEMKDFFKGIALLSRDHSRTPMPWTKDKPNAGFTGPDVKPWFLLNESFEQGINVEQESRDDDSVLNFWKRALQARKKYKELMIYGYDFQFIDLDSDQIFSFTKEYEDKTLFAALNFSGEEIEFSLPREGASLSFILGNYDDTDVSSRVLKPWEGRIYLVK
F12: Coagulation factor XII (F12, Homo sapiens, UniProt P00748)
Sequence of UniProt P00748 (whole entry, looked up): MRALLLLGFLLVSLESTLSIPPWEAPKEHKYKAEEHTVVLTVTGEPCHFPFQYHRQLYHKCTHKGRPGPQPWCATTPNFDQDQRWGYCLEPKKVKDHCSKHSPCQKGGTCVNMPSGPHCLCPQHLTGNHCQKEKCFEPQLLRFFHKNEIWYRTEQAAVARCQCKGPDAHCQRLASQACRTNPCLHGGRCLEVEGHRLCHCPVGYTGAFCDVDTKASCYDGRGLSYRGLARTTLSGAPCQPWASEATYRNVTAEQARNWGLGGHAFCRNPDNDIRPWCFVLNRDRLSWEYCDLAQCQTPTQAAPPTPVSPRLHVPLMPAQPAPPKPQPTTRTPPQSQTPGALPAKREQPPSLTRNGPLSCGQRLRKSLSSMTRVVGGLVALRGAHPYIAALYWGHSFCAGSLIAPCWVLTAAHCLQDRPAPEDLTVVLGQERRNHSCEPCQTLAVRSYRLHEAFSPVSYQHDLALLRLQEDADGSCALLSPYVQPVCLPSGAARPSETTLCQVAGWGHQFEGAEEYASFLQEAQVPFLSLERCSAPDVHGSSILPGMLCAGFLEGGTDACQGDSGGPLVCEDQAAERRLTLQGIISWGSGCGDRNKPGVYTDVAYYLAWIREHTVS
DRD5: D(1B) dopamine receptor (DRD5, Homo sapiens, UniProt P21918)
Sequence of UniProt P21918 (whole entry, looked up): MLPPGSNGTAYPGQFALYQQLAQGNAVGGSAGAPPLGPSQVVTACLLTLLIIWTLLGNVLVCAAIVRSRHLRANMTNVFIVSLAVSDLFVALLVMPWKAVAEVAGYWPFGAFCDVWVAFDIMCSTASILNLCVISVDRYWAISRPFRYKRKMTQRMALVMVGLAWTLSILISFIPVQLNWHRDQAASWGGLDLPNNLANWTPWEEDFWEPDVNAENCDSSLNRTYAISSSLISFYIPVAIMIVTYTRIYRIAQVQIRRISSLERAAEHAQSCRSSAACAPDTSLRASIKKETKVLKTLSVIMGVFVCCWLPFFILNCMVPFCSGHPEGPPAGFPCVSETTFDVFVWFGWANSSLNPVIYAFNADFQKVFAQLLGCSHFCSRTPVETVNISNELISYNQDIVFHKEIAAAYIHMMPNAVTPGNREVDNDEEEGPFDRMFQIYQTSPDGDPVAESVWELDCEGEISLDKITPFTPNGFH
HTR1A: 5-hydroxytryptamine receptor 1A (HTR1A, Homo sapiens, UniProt P08908)
Sequence of UniProt P08908 (whole entry, looked up): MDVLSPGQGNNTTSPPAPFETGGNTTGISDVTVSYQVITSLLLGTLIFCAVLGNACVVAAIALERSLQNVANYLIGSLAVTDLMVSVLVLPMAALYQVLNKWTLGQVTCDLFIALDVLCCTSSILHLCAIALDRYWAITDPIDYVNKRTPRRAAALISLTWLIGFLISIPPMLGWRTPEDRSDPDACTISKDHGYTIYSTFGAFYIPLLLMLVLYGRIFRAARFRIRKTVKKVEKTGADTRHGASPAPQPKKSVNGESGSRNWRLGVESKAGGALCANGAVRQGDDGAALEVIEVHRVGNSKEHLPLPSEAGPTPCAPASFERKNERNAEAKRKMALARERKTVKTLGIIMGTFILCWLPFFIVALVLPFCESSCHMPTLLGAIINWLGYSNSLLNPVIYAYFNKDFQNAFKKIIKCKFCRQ
HTR4: 5-hydroxytryptamine receptor 4 (HTR4, Homo sapiens, UniProt Q13639)
Sequence of UniProt Q13639 (whole entry, looked up): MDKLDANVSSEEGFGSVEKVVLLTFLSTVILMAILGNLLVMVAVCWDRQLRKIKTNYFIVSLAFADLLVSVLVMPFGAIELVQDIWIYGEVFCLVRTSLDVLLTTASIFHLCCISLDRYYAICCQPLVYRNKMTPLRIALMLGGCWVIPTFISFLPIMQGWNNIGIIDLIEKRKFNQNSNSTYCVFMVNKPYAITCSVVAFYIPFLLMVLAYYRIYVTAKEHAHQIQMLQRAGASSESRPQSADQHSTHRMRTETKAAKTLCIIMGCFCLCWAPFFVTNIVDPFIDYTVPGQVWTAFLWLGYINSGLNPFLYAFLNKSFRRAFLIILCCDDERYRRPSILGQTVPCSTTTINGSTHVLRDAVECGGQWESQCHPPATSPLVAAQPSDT
Urease subunit alpha: Urease subunit alpha (Sporosarcina pasteurii, UniProt P41020)
Sequence of UniProt P41020 (whole entry, looked up): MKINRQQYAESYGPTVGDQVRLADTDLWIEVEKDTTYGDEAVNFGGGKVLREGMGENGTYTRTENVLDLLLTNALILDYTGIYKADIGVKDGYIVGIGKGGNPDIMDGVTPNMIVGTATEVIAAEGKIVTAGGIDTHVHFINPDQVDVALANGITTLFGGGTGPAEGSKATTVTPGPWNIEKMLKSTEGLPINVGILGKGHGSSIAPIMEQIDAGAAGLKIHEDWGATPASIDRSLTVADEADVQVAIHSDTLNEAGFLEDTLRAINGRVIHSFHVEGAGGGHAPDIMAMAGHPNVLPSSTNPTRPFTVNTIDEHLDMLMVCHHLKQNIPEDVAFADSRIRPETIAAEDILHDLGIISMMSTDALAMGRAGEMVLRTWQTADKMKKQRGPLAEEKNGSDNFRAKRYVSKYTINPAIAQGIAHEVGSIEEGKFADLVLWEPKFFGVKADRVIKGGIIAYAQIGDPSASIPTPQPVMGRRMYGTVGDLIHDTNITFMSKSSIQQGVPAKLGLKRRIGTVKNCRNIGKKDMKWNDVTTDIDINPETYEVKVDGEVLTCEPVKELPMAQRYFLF
Sequence of UniProt Q8IWT6 (whole entry, unmodified, looked up): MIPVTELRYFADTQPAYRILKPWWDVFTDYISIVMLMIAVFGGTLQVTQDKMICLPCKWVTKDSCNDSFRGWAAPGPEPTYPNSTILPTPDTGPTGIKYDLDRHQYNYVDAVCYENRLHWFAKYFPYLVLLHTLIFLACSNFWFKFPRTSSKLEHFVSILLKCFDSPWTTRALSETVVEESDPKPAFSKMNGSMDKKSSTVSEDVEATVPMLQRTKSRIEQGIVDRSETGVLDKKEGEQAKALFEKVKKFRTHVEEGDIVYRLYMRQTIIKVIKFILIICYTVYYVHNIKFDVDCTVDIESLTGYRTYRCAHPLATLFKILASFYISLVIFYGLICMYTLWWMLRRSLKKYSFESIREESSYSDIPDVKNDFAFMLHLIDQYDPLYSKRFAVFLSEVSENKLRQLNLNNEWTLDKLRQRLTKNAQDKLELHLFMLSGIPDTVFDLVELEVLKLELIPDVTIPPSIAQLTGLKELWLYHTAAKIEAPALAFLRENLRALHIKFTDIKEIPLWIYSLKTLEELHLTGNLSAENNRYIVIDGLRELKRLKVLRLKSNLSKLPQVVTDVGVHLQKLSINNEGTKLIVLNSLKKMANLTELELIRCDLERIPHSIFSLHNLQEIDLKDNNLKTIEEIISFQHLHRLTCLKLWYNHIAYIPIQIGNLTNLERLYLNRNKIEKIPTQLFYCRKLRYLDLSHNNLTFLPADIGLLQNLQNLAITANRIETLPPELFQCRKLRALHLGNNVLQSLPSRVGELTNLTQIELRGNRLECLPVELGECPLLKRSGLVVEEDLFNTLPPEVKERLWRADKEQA
Sequence of UniProt O35240 (whole entry, looked up): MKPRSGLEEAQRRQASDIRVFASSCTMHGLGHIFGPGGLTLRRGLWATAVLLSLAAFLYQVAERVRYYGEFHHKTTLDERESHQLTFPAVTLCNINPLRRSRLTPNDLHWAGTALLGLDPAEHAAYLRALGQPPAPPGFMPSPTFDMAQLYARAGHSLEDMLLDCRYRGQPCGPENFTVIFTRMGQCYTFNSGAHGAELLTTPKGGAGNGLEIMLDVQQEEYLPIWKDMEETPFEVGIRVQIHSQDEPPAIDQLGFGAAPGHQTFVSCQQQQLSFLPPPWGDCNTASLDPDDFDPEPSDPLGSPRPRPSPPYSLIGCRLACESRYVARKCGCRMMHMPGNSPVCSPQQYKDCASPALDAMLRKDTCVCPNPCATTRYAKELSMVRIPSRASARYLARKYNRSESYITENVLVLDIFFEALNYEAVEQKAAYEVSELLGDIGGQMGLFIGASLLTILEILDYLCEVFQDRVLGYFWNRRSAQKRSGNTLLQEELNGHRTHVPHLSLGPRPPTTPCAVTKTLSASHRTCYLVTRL
Sequence of UniProt Q29495 (whole entry, looked up): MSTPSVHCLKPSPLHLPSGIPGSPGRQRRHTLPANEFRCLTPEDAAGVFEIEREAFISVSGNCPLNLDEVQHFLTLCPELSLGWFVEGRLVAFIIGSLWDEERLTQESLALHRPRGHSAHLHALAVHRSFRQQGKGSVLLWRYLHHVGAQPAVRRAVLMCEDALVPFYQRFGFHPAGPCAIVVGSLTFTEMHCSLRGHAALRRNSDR
Sequence of UniProt Q9Y271 (whole entry, looked up): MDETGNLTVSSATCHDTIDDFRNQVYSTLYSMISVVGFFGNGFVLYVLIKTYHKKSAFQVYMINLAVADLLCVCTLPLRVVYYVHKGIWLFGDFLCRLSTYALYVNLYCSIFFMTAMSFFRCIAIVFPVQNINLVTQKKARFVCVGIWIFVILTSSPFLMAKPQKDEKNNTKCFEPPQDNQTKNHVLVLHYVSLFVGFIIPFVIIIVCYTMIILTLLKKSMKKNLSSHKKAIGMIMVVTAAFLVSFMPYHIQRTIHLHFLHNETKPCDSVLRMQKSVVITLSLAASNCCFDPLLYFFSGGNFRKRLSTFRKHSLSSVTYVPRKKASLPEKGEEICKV

| SMILES | target or system | assay | system | conditions | scale | quantity | value |
| --- | --- | --- | --- | --- | --- | --- | --- |
| O=c1c(/C=N/NC(=S)Nc2cccc([N+](=O)[O-])c2)coc2cc(F)ccc12 | MAL12 | enzyme activity, inhibitor | – | 500 µM | – | inhibition | 90.9% |
| O=c1oc(-c2ccco2)nc2ccccc12 | F12 | chromogenic substrate hydrolysis | – | up to 50 µM | – | inhibition | no inhibition |
| COc1cc(C(=O)NS(=O)(=O)c2ccccc2C)ccc1Cc1cn(C)c2ccc(NC(=O)OC3CCCC3)cc12 | Volume-regulated anion channel subunit LRRC8C, part LRRC8A IL1 chimera (LRRC8C, Homo sapiens, UniProt Q8TDW0, E6A) | ion current, inhibitor, whole-cell patch clamp | HCT LRRC8-/- cells | 3 µM, +100 mV | – | inhibition | 92.7% and 83.4% and 90.7% and 85.4% and 98% and 88.3% |
| CCc1oc2ccccc2c1C(=O)c1cc(Br)c(O)c(Br)c1 | SLC22A12 (Homo sapiens, UniProt Q96S37, M214A) | uric acid uptake | HEK293T transfected with SLC22A12 M214A | 0.5 µM, 10 min, 37 °C, mean, together with: [14C]urate 200 µM | – | inhibition | 42% |
| O=C(Nc1cccc2c(=O)cc(-c3nnn[nH]3)oc12)c1ccc(OCCCCc2ccccc2)cc1 | LRRC8A/LRRC8C (Homo sapiens, UniProt Q8IWT6+Q8TDW0, Y124F/Y126F) | ion current, whole-cell patch clamp | HCT LRRC8-/- cells | 3 µM, -100 mV, Y124F/Y126F heteromers | – | inhibition | -4.24% and 13.3% and -8.04% and -8.85% and 58.6% and -3.08% |
| Cc1cc(-c2ccnc3[nH]cc(F)c23)cc(F)c1[C@@]1(O)[C@H](C)CN(C2CCS(=O)(=O)CC2)C[C@@H]1C | AKT1 and AKT3 | ATP probe binding, KiNativ, item: Lys1 site | HEK293T cell lysate | 0.1 µM | – | inhibition | 2.8% |
| O=C1c2ccccc2CCN1CCCCN1CCN(c2ccccn2)CC1 | DRD5 | radioligand binding | – | concentration not given, together with: [3H]SCH23390 | – | inhibition | 31.5% |
| CN(C(=O)C(C)(C)c1cc(C(F)(F)F)cc(C(F)(F)F)c1)c1cnc(N2C[C@H]3COCCN3C[C@H]2CO)cc1-c1ccc(F)cc1[14CH3] | – | – | human liver microsomes | substrate depletion | – | Vmax | 307 pmol/min/mg |
| COc1ccc2c(c1)C(=O)N(CCCN1CCN(c3ccccc3OC)CC1)C2 | HTR1A | radioligand binding | – | concentration not given, together with: [3H]8-OH-DPAT | – | inhibition | 92.5% |
| C[C@@H]1CCO[C@H]2Cn3cc(C(=O)NCc4ccc(F)cc4F)c(=O)c(O)c3C(=O)N12 | SLC29A4 (Homo sapiens, UniProt Q7RTT9) | transport | MDCK-II, transfected | 100 µM, together with: MPP+ 10 µM | – | inhibition | -2.91% |
| CC(C)c1noc2ncc(C(=O)c3ccccc3O)cc12 | Asic3 (Rattus norvegicus, UniProt O35240) | ion current, inhibitor, whole-cell patch clamp | – | 10 µM | – | inhibition | 0.28% and 2.38% and 6.33% and 8.74% |
| CC(C)Cc1ccc(-c2nn(-c3ccc(S(C)(=O)=O)cc3)cc2/C=N/N=c2\[nH]c(-c3ccc([N+](=O)[O-])cc3)cs2)cc1 | EGFR (Homo sapiens, UniProt P00533, L858R) | kinase activity, inhibitor | – | 100 µM | – | inhibition | 94% |
| CCN(CC)C(=S)S | PTPN22 (Homo sapiens, UniProt Q9Y2R2) | enzyme activity, inhibitor | – | concentration not given, together with: DiFMUP | – | inhibition | no inhibition |
| COc1ccc(CN2C[C@](C)(O)[C@@H]3C[C@H]2[C@@H](C)c2nc4ccccc4c(-c4ccccc4)c23)cc1 | Mu-type opioid receptor (Cavia porcellus, UniProt A0ACM8Q262) | binding, radioligand binding | guinea pig brain membranes | 1 µM, together with: [3H]DAMGO | – | inhibition | 2% |
| Clc1ccc(C(c2c[nH]c3ccccc23)c2c[nH]c3ccccc23)cc1 | COS-7 | – | – | 10 µM, 24 h, 0.1% DMSO, unit not given | relative to: vehicle control | confluence | 0.49 ± 0.05 |
| Cc1nn(-c2nc3c(F)cc(F)cc3s2)c(O)c1C(c1ccccc1C(=O)O)c1c(C)nn(-c2nc3c(F)cc(F)cc3s2)c1O | CGAS (Homo sapiens, UniProt Q8N884) | enzyme activity, inhibitor, pyrophosphatase-coupled | – | 100 µM, 1.5 h, together with: HT-DNA | – | inhibition | 93.7% |
| COc1cc(-c2cc(C(C)=O)n3ccccc23)c(OC)cc1Cn1ccnc1 | Bromodomain testis-specific protein, BD1 (BRDT, Homo sapiens, UniProt Q58F21) | – | – | 1 µM | – | inhibition | -16.9% |
| N=C(N)c1ccc(-c2ccc(-c3ccc(C(=N)N)cc3)o2)cc1 | F12 | enzyme activity, inhibitor | – | concentration not given, pH 7.4 | – | inhibition | 99 ± 8% |
| Cc1cc(-c2ccnc3[nH]cc(F)c23)cc(F)c1[C@@]1(O)[C@H](C)CN(C(=O)CN)C[C@@H]1C | AKT1 and AKT3 | ATP probe binding, KiNativ, item: Lys1 site | HEK293T cell lysate | 1 µM | – | inhibition | -1.2% |
| COc1cc2c(cc1OC)C(=O)N(CCCCN1CCN(c3ccccc3OC)CC1)C2 | HTR4 | radioligand binding | – | concentration not given | – | inhibition | 4.4% |
| Cc1cc(O)c2c(c1)C(=O)c1cccc(O)c1C2=O | HepaRG co-cultured with HK-2 | MTT | – | 133.33 µM, 24 h | relative to: untreated control | cell viability | 93.9 ± 9.34% |
| COc1c(C#N)ccnc1N1C2CCC1CN(C(=O)c1cccnc1-n1cccn1)C2 | sodium channel site 2 | binding | – | 10 µM | – | inhibition | 7.4% |

| SMILES | target or system | assay | system | conditions | scale | quantity | value |
| --- | --- | --- | --- | --- | --- | --- | --- |
| COc1c(O)c(C)cc2c1C(=O)c1c(cc(O)c(O)c1O)C2=O | HepaRG co-cultured with HK-2 | MTT | – | 16.67 µM, 48 h | relative to: untreated control | cell viability | 101 ± 9.23% |
| Fc1ccc(/C=C/C=N/NC(=S)Nc2cccc(F)c2)cc1 | Urease subunit alpha | enzyme activity, indophenol method | – | 500 µM | – | inhibition | 82.1% |
| COc1cccc(OC[C@@H]2CN(CCN3CCc4ccccc43)CCO2)c1 | HTR4 | radioligand binding | – | concentration not given | – | inhibition | 13.4% |
| Oc1ccc(Cn2ccnc2)cc1 | MAL12 | inhibitor | – | 25 µM | – | inhibition | 9.9% |
| Cc1ccc(OC[C@@H]2CN(CCN3CCc4ccccc43)CCO2)cn1 | DRD5 | radioligand binding | – | concentration not given, together with: [3H]SCH23390 | – | inhibition | -2.7% |
| O=c1c(-c2ccc3c(c2)OCO3)coc2c(Cn3cccn3)c(O)ccc12 | MAL12 | inhibitor | – | 25 µM | – | inhibition | 14.4% |
| Cn1cc(-c2cnc3ccc(NC(=O)Nc4ccc(F)c(Br)c4)cc3n2)cn1 | IKBKB (Homo sapiens, UniProt O14920) | kinase binding, KiNativ profiling, item: Lys2 peptide | PANC-1 lysate | 10 µM | – | inhibition | 9.7% |
| COc1ccc(F)cc1C(=O)NCc1ccc(-c2nn([C@@H](C)C(F)(F)F)c(N)c2C(N)=O)cc1 | MAP2K1 (Homo sapiens, UniProt Q02750) | target engagement, competitive chemoproteomics | human PBMCs | 0.01 µM | – | inhibition | -5.7% |
| O=C(NO)c1ccc(CN2CCCCc3ccccc32)c(F)c1 | ADRA2A (Homo sapiens, UniProt P08913) | radioligand binding, PDSP radioligand binding | – | 10 µM | – | inhibition | 27.1% |
| CN(C(=O)n1cnc(-c2ccc[n+]([O-])c2)c1)C1CCCCC1 | CYSLTR1 (Homo sapiens, UniProt Q9Y271) | – | – | 10 µM | – | inhibition | -3.96% |
| Cc1oc2c(Cn3cccn3)c(O)ccc2c(=O)c1C | MAL12 | inhibitor | – | 25 µM | – | inhibition | < 0% |
| Cc1cccc(C)c1NC(=S)N/N=C/C=C/c1ccc(F)cc1 | Urease subunit alpha | enzyme activity, indophenol method | – | 500 µM | – | inhibition | 86.3% |
| CC[C@@H]1[C@H](F)C(=O)N[C@@H]1COc1nccc2cc(C(N)=O)c(OC)cc12 | CDK14 (Homo sapiens, UniProt O94921) | ATP probe binding, KiNativ profiling, item: Lys1 probe site | THP-1 cell lysate | 0.01 mM | – | inhibition | -6.2% |
| O=C(CN1CCO[C@H](COc2cccnc2)C1)N1CCc2ccccc21 | DRD5 | radioligand binding | – | concentration not given, together with: [3H]SCH23390 | – | inhibition | -7.2% |
| NC(N)=S | Urease subunit alpha | enzyme activity, inhibitor, indophenol method | – | 0.5 mM | – | inhibition | 94.6% |
| Cc1cc2c(cc1N1C(=O)c3cccc4c(CCCO)ccc(c34)C1=O)n(C)c(=O)n2C (racemic) | BRD1 (Homo sapiens, UniProt O95696) | binding, BROMOscan binding | – | 1000 nM | – | inhibition | 0% |
| C=CCNC(=O)C#Cc1ccc(-c2cccs2)s1 | Serotonin N-acetyltransferase (Ovis aries, UniProt Q29495) | enzyme activity, inhibitor | – | 40 µM, up to tested concentration, together with: acetyl-CoA | – | inhibition | no inhibition |
| O=C1c2ccccc2CCCN1CCCCN1CCN(c2ccccn2)CC1 | DRD5 | radioligand binding | – | concentration not given, together with: [3H]SCH23390 | – | inhibition | 36.7% |
| CC(C)n1c(/C=C/C(O)CC(O)CC(=O)O)c(-c2ccc(F)cc2)c2ccccc21 (stereo not shown) | COS-7 | WST-8 | – | 6 µM, 24 h, 0.1% DMSO, unit not given | relative to: vehicle control | metabolic activity | 0.93 ± 0.06 |
| Clc1cncc(OC[C@H]2CN(CCN3CCc4ccccc43)CCO2)c1 | HTR1A | radioligand binding | – | concentration not given, together with: [3H]8-OH-DPAT | – | inhibition | 13.6% |
| Fc1ccc(/C=C/C=N/NC(=S)NC2CCCCC2)cc1 | Urease subunit alpha | enzyme activity, indophenol method | – | 500 µM | – | inhibition | 87.4% |

Repeated from above:
| SMILES | target or system | assay | system | conditions | scale | quantity | value |
| --- | --- | --- | --- | --- | --- | --- | --- |
| COc1ccc(CN2C[C@](C)(O)[C@@H]3C[C@H]2[C@@H](C)c2nc4ccccc4c(-c4ccccc4)c23)cc1 | Mu-type opioid receptor (Cavia porcellus, UniProt A0ACM8Q262) | binding, radioligand binding | guinea pig brain membranes | 1 µM, together with: [3H]DAMGO | – | inhibition | 2% |
| CN(C(=O)C(C)(C)c1cc(C(F)(F)F)cc(C(F)(F)F)c1)c1cnc(N2C[C@H]3COCCN3C[C@H]2CO)cc1-c1ccc(F)cc1[14CH3] | – | – | human liver microsomes | substrate depletion | – | Vmax | 307 pmol/min/mg |
| Cc1cc(-c2ccnc3[nH]cc(F)c23)cc(F)c1[C@@]1(O)[C@H](C)CN(C2CCS(=O)(=O)CC2)C[C@@H]1C | AKT1 and AKT3 | ATP probe binding, KiNativ, item: Lys1 site | HEK293T cell lysate | 0.1 µM | – | inhibition | 2.8% |
| COc1ccc(F)cc1C(=O)NCc1ccc(-c2nn([C@@H](C)C(F)(F)F)c(N)c2C(N)=O)cc1 | MAP2K1 (Homo sapiens, UniProt Q02750) | target engagement, competitive chemoproteomics | human PBMCs | 0.01 µM | – | inhibition | -5.7% |
| CC(C)c1noc2ncc(C(=O)c3ccccc3O)cc12 | Asic3 (Rattus norvegicus, UniProt O35240) | ion current, inhibitor, whole-cell patch clamp | – | 10 µM | – | inhibition | 0.28% and 2.38% and 6.33% and 8.74% |
| O=C1c2ccccc2CCN1CCCCN1CCN(c2ccccn2)CC1 | DRD5 | radioligand binding | – | concentration not given, together with: [3H]SCH23390 | – | inhibition | 31.5% |
| O=C(NO)c1ccc(CN2CCCCc3ccccc32)c(F)c1 | ADRA2A (Homo sapiens, UniProt P08913) | radioligand binding, PDSP radioligand binding | – | 10 µM | – | inhibition | 27.1% |
